# Measured values gathered from unrelated publications.
# Each numbered part is a random draw from the data of one study; scales do not carry over between parts. Changes are numbered by the printed parent chain.

# Block 1 — technique: protein binding microarray; molecule type: double-stranded DNA, one strand shown; matrix: in vitro; tested at: not given; baseline: not given; direction: higher = stronger binding
# Target: Histone acetyltransferase KAT6A, winged helix 1, GST fusion (KAT6A, Homo sapiens, UniProt Q92794, residues 1-85)
# Notes: 8-mer, flanks averaged, mean of 2 arrays, mostly near background
# Target sequence (chain): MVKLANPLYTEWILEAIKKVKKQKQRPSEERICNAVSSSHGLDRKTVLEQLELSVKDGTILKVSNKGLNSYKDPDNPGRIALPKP
Strand,E-score
GCTCGAGC,0.163
AGACTTAG,-0.16
AAGAGGGG,-0.204
AGCGCTCA,0.333
ATCTAAGG,-0.136
CTAGAAAC,-0.246
ATAGATTG,-0.129
CCCCAGGA,-0.14
AAACAAGG,-0.133
GAGAACTC,-0.145
AGAAGATA,0.0452
TTCTGCAA,0.0062
GATTAATC,-0.0502
CCTTGGGC,0.0933
TAGTGAGA,-0.0943
ACAAGCAC,0.0622
AAGGAGCT,-0.0077
ACGTAGCC,0.0649
ATCGCGAA,0.16
GACATCAC,0.101
CGGCCAAA,0.103
GAAAGTTA,-0.151
ATGCCCGG,0.281
GCGGTATA,0.266
ACGGGACG,0.301

# Block 2 — technique: protein-binding microarray; molecule type: double-stranded DNA, one strand shown; matrix: in vitro; tested at: not given; direction: higher = stronger binding
# Target: Max-binding protein MNT, bHLH-zipper, MAX partner unstated (MNT, Homo sapiens, UniProt Q99583, residues 220-300)
# Notes: k-mer, scored over probes, only values ≥0.25
# Residues (chain): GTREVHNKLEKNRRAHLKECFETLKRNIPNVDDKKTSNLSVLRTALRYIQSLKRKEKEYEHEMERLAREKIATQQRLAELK
Strand,E-score
CCACGCGA,0.422
GCGTGCAA,0.412
ATGGGGAA,0.264
ACTCTCCC,0.284
CCGCGCGC,0.285
CACATTGC,0.324
ACGTGGCT,0.45
ACGTGGGA,0.438
ACCACGAG,0.415
ACCTCATG,0.397
ATGTGACC,0.327
ACGACGTG,0.371
GTGCAACA,0.271
AGCATGAC,0.353
CGGCGTGC,0.4
AGGCGTGC,0.37
ATGCATGA,0.3
ACGCGACG,0.279
ACACGCCG,0.384
CGTGGTCC,0.353
CGTGCCTA,0.289
ACCCGCCC,0.34
AACATGGG,0.289
ATGCGCGG,0.252
GTCCCCAC,0.278

# Block 3 — target: CCNB3, cyclin fold, Cln2 fusion (human); technique: yeast growth competition, sequencing; matrix: yeast; notes: weak parent motif; baseline: not given; direction: higher = stronger binding
# Starting sequence: CDKN1A docking peptide (human); SKACRRLFGPVDS
Substitution,normalised enrichment score
SKARRRLFGPVDS [C4R],1.22
SKACRRLFGVVDS [P10V],0.183
SKAMRRLFGPVDS [C4M],0.206
SLACRRLFGPVDS [K2L],0.373
SKACKRLLGPVDS [R5K F8L],0.0842
SKACRILFGPVDS [R6I],0.353
SKACRRLFGPMDS [V11M],0.258
SIACRRLFGPVDS [K2I],0.437
SSACRRLFGPVDS [K2S],0.53
SKACRRLNGPVDS [F8N],0.181
SKACWRLFGPVDS [R5W],0.345
SKANRRLFGPVDS [C4N],0.223
SKACRRLSGPVDS [F8S],0.133
SKACRCLFGPVDS [R6C],0.169
SKHCRRLFGPVDS [A3H],0.4
SKACRRLFLPVDS [G9L],0.449
SQACRRLFGPVDS [K2Q],0.359
SKACRRLFQPVDS [G9Q],0.552
SKACRRLFGPVKS [D12K],0.368
SKACRRLVGPVDS [F8V],0.0923
SKACRRLFMPVDS [G9M],0.727
STACRRLFGPVDS [K2T],0.72

# Block 4 — technique: DHFR PCA, deep sequencing; matrix: yeast; with: (+)-ABA 4.8 µM; baseline: wild-type fitted maximum; direction: higher = stronger binding
# Target: ABI1, truncated, D143A, DHFR fusion (Arabidopsis thaliana)
# Notes: methotrexate growth selection, single substitutions
# Starting sequence: PYL1, truncated, DHFR fusion (Arabidopsis thaliana); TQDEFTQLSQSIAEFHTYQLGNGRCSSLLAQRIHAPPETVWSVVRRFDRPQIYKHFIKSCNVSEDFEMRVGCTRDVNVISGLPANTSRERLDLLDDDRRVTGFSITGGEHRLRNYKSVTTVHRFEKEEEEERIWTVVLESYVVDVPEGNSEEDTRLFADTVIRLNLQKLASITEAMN; partner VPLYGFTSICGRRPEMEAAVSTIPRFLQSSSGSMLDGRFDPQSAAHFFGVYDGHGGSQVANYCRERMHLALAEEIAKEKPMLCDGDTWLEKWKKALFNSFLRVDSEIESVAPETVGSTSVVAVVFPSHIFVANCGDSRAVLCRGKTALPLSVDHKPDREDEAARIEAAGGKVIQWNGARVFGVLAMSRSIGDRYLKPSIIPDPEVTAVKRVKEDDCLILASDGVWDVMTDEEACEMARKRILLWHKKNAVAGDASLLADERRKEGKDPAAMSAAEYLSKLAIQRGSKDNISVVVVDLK
Substitution,relative binding score
S171D,83.3%
S9G,70.8%
S140F,-0.434%
I57W,17.9%
E174N,7.94%
F47V,-8.31%
T6V,77.9%
V78L,80.8%
H34P,34.3%
E89Y,-14%
P50F,-9.22%
Q167A,77.3%
V70R,26%
L112W,-7.13%
C25R,-4.59%
A84K,5.11%

# Excerpt of the above (block 4):
Substitution,relative binding score
I57W,17.9%
C25R,-4.59%
L112W,-7.13%
T6V,77.9%
V70R,26%
E89Y,-14%
S9G,70.8%
